{"data": "Published values collected from several papers", "note": "Every numbered part comes from another study and shows a few of its results, in no order. Positions count from the first letter of the parent shown."}
{"data": "Set 1", "target": "CCNA1, cyclin fold, Cln2 fusion (human)", "method": "yeast growth competition, sequencing", "medium": "yeast", "notes": "weak parent motif", "relative to": "not given", "direction": "higher = stronger binding", "parent": "ORC1 docking peptide (human); PRARKRLELGNLG"}
{"Change": "L7G", "normalised enrichment score": 0.228}
{"Change": "L9Q", "normalised enrichment score": 0.578}
{"Change": "R6C", "normalised enrichment score": 0.271}
{"Change": "G10L", "normalised enrichment score": 0.679}
{"Change": "L12P", "normalised enrichment score": 0.581}
{"Change": "N11S", "normalised enrichment score": 0.405}
{"Change": "G10I", "normalised enrichment score": 0.403}
{"Change": "A3T", "normalised enrichment score": 0.541}
{"Change": "E8V", "normalised enrichment score": 0.542}
{"Change": "L9M", "normalised enrichment score": 0.609}
{"data": "Set 2", "target": "ABI1, truncated, D143A, DHFR fusion (Arabidopsis thaliana)", "method": "DHFR PCA, deep sequencing", "medium": "yeast", "notes": "methotrexate growth selection, single substitutions", "together with": "(+)-ABA 17 µM", "relative to": "wild-type fitted maximum", "direction": "higher = stronger binding", "parent": "PYL1, truncated, DHFR fusion (Arabidopsis thaliana); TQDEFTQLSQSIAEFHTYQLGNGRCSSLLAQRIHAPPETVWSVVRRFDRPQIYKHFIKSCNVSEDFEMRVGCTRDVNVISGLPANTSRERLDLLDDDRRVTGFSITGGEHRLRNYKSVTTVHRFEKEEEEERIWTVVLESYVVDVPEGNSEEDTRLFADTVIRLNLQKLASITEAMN; partner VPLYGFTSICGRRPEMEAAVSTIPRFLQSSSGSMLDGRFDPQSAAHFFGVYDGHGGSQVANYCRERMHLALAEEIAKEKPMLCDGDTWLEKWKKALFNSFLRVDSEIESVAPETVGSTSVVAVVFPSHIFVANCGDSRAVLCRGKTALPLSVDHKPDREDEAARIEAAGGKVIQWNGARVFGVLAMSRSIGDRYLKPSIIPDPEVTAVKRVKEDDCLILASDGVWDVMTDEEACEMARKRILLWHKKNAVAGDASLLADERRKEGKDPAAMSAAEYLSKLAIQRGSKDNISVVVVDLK"}
{"Change": "T1L", "relative binding score [%]": 83.6}
{"Change": "G71K", "relative binding score [%]": -4.74}
{"Change": "Q2E", "relative binding score [%]": 84}
{"Change": "P50K", "relative binding score [%]": -15.3}
{"Change": "T6W", "relative binding score [%]": 75.6}
{"Change": "L94V", "relative binding score [%]": 34.3}
{"data": "Set 3", "target": "Histone acetyltransferase KAT6A, winged helix 2, GST fusion (KAT6A, Homo sapiens, UniProt Q92794, residues 85-181)", "method": "protein binding microarray", "molecule type": "double-stranded DNA, one strand shown", "medium": "in vitro", "concentration": "not given", "notes": "8-mer, flanks averaged, mean of 2 arrays, mostly near background", "relative to": "not given", "direction": "higher = stronger binding", "Construct (chain)": "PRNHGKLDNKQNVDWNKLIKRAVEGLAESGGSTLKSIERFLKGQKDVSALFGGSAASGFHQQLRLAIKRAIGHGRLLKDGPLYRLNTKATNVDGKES"}
{"Sequence": "GGGTCTAA", "E-score": 0.0254}
{"Sequence": "GCGTAGCA", "E-score": 0.0711}
{"Sequence": "ATGCCAAA", "E-score": -0.0621}
{"Sequence": "GCGATTCA", "E-score": -0.0174}
{"Sequence": "AGTCCGTG", "E-score": -0.265}
{"Sequence": "AGGGGGCC", "E-score": 0.0744}
{"Sequence": "CAGCATCG", "E-score": 0.0133}
{"Sequence": "CGATAGGC", "E-score": -0.0871}
{"Sequence": "CTCACGAC", "E-score": -0.122}
{"data": "Other studies, line by line"}
{"Substance": "PhoQ, residues 284 288 289 292 302 303 SSTLLI", "target": "PhoP, residues 12 14 15 18 19 AGCRL (Escherichia coli, UniProt P23836)", "assay": "Sort-seq, item: YFP reporter", "system": "E. coli", "conditions": "PhoQ-PhoP variant library, together with: 10 µM Mg2+", "how to read": "relative to: high Mg2+ state, higher = stronger signaling", "measurement": "fold induction", "value": 10.3}
